Assay results from different studies.
Each line is one published result; not all experiments were run side by side. Values joined by “and” are separate records of one study, mostly repeats; a detail may differ. ± marks the error that the study gave.
Chain of UniProt Q9Y4K4 (whole entry, looked up): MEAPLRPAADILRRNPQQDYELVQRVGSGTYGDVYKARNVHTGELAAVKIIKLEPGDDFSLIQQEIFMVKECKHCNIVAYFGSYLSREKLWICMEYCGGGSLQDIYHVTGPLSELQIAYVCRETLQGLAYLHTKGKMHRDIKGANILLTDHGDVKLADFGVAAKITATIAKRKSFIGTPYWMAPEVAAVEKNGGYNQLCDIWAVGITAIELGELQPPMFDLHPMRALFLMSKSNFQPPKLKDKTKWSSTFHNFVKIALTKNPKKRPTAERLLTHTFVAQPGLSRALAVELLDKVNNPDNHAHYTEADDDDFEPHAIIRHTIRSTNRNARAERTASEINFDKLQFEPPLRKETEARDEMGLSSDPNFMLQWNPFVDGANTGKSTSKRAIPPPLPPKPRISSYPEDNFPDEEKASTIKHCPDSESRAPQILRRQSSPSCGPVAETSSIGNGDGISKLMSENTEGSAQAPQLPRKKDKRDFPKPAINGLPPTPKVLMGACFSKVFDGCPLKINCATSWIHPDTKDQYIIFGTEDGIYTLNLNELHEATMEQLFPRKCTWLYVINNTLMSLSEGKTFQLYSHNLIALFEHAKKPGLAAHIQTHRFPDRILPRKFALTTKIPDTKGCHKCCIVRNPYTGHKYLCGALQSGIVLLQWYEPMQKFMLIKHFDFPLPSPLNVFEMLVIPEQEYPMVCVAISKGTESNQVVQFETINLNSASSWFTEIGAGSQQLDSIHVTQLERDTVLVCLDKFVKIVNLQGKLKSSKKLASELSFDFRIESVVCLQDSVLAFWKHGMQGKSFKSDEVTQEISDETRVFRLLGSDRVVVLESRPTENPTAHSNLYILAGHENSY

`N#C[C@@H]1CC(F)(F)CN1C(=O)CNC(=O)c1ccnc2c(NC(=O)[C@@H](N)CCCCNC(=O)CCOCCOCCOCCOCCOCCOCCNC(=O)CN3CCN(CC(=O)[O-])CCN(CC(=O)[O-])CCN(CC(=O)[O-])CC3)cccc12.[177Lu+3]` has a tissue uptake of 0.02 ± 0.02 %ID/g (mouse, U-87 MG tumour xenograft, brain; 48 h).
For `CCCC[C@H](NC(=O)COCCOCCNC(=O)CN1CCN(CC(=O)O)CCN(CC(=O)O)CC1)C(=O)N[C@H]1CC(=O)NCCCC[C@@H](C(N)=O)NC(=O)[C@H](Cc2c[nH]c3ccccc23)NC(=O)[C@H](CCCNC(=N)N)NC(=O)[C@@H](Cc2ccccc2)NC(=O)[C@H](Cc2c[nH]cn2)NC1=O` [fluorine-18 labelled], the tissue uptake was 0.86 ± 0.26 %ID (C57 mice, B16/F10 melanoma, intestines; intravenous, 0.37 MBq, 1 h).
`[123I]c1ccc2nc(-c3ccc(-n4ccnn4)nc3)cn2c1` gave a tissue uptake of 0.235 ± 0.049 %ID/g (male Wistar rat, large intestine; intravenous, 4 MBq, 5 min).
`C=CC(=O)Nc1cccc(Cn2ncc3cnc(Nc4cnn(CCOC)c4)nc32)c1`: “percent of control” 67% (RIOK2 human; binding, KINOMEscan; 100 nM; lower = stronger binding).
With `COc1cccc(OC)c1-c1cc(C(=O)NC2(C(=O)O)C3CC4CC(C3)CC2C4)nn1-c1ccc(C(=O)N(C)CCCN(C)C(=O)[C@H](CCCCNC(=O)[C@H](CC(C)C)NC(=O)C2OC2C(=O)O)NC(=O)CN2CCN(CC(=O)[O-])CCN(CC(=O)[O-])CCN(CC(=O)[O-])CC2)cc1C(C)C.[177Lu+3]` (mixture of isomers) the tissue uptake was 1.83 %ID/g (mouse, HT-29 xenograft, HT-29 tumour; 72 h post injection).
`[11CH3]N1CCC(NC(=O)c2cc(-c3c(O)cc(O)cc3Oc3ccc([N+](=O)[O-])cc3)on2)CC1` has a tissue uptake of 0.6 ± 0.1 %ID (Wistar rat, female, healthy, lungs; intravenous, 60 min).
`O=C1C2CC3CC1CC(C(=O)N1CCN(c4ccc([N+](=O)[O-])c5ncccc45)CC1)(C3)C2` — result for “mean revertant colonies”: 29 colonies/well (Salmonella typhimurium; Ames test; TA100; 0.78 µg/well, with S9).
With `COc1cccc(OC)c1-c1cc(C(=O)NC2(C(=O)O)C3CC4CC(C3)CC2C4)nn1-c1ccc(C(=O)NCCNC(=O)[C@H](CCCCNC(=O)[C@H](CC(C)C)NC(=O)C2OC2C(=O)O)NC(=O)CN2CCN(CC(=O)[O-])CCN(CC(=O)[O-])CCN(CC(=O)[O-])CC2)cc1C(C)C.[177Lu+3]` (mixture of isomers) the tissue uptake was 0.71 %ID/g (mouse, HT-29 xenograft, spleen; 24 h post injection).
`O=C(CN1CCN(CC(=O)NCc2ncccc2O)CCN(CC(=O)NCc2ncccc2O)CCN(CC(=O)NCc2ncccc2O)CC1)NCc1ncccc1O.[177Lu+3]` has a tissue uptake of 0.013 ± 0.006 % injected dose/g (Sprague-Dawley rat, muscle; intravenous (tail vein), dose not given, 2 h).
Under “revertant fold increase”, `CC(C)OCCOCc1ccc(OCC(O)CN(N=O)C(C)C)cc1` (stereo not drawn) is recorded as 0.8 fold (Salmonella typhimurium; Ames test; TA100; 500 µg/plate, 30 % rat S9; baseline: solvent control).
The clearance of `C=C(NC(=O)c1csc(-c2nc3c(cc2O)-c2nc(cs2)C(=O)NC(C(C)O)C(=O)NC(=C(C)OC)c2nc(cs2)C(=O)NC2c4nc(cs4)C(=O)NC(COC(=O)c4c5c6c(cccc6n4O)COC(=O)C(OC4CC(C)(O)C(N(C)C)C(C)O4)C2OC5)c2nc-3cs2)n1)C(N)=O` (stereo not drawn) is reported as 2.73 mL/min/kg (cynomolgus monkey, male, plasma; intravenous infusion, 3 mg/kg single dose).
`N#C[C@@H]1CC(F)(F)CN1C(=O)CNC(=O)c1ccnc2c(NC(=O)CCOCCOCCOCCOCCOCCOCCNC(=O)[C@H](CCCCNC(=O)CN3CCN(CC(=O)[O-])CCN(CC(=O)[O-])CCN(CC(=O)[O-])CC3)NC(=O)CCCc3ccc(I)cc3)cccc12.[177Lu+3]` has a tissue uptake of 0.66 ± 0.17 %ID/g (mouse, U-87 MG tumour xenograft, spleen; 4 h).
With `CCCC[C@H](NC(=O)CNC(=O)CNC(=O)[C@H](CCCCNC(=O)[C@H](CC(=O)O)NC(=O)C(C)c1ccc(CC(C)C)cc1)NC(=O)CN1CCN(CC(=O)O)CCN(CC(=O)O)CCN(CC(=O)O)CC1)C(=O)N[C@H]1CC(=O)NCCCC[C@@H](C(N)=O)NC(=O)[C@H](Cc2c[nH]c3ccccc23)NC(=O)[C@H](CCCNC(=N)N)NC(=O)[C@@H](Cc2ccccc2)NC(=O)[C@H](Cc2c[nH]cn2)NC1=O` (stereo partly drawn) [lutetium-177 labelled] the tissue uptake was 2.13 ± 0.73 %ID/g (C57 mouse, liver; intravenous, 2 h, added: 10 µg NDP-MSH co-injection).
The IC50 of `Cc1nn(-c2cccc(N)c2)c(=O)c2cnc(Nc3ccc(N4CCNCC4)cc3)nc12` is reported as 299 nM (Mitogen-activated protein kinase kinase kinase kinase 5 (MAP4K5, Homo sapiens, UniProt Q9Y4K4); enzyme activity, inhibitor).
The tissue uptake of `COc1cccc(OC)c1-c1cc(C(=O)NC2(C(=O)O)C3CC4CC(C3)CC2C4)nn1-c1ccc(C(=O)N(C)CCOCCN(C)C(=O)[C@H](CCCCNC(=O)[C@H](CC(C)C)NC(=O)C2OC2C(=O)O)NC(=O)CN2CCN(CC(=O)[O-])CCN(CC(=O)[O-])CCN(CC(=O)[O-])CC2)cc1C(C)C.[177Lu+3]` (mixture of isomers) is reported as 1.1 %ID/g (mouse, HT-29 xenograft, spleen; 168 h post injection).
`COC1CN([C@H]2CC[C@H]([C@@]3(C)Oc4c(Cl)cc(C(=O)NCc5c(SC)cc(C)[nH]c5=O)c(C)c4O3)CC2)C1`: “log2 fold change” 0.425 (RNA-seq, refers to: RAB36 mouse homolog; mouse, HT-1376 xenograft, whole blood; dose not given; baseline: vehicle).
`COc1ccc(Nc2nc(Nc3ccc(OCCOCCOCC[18F])cc3)ncc2Br)cc1` has a tissue uptake of 1.26 ± 0.09 %ID/g (ICR mice, S180 tumour-bearing, heart; intravenous, 370 kBq, 30 min).
`O=C(NCC1OC2CCC=CCCC2O1)c1ccc(COCCOCCOCC[18F])cc1` (stereo not drawn) has a tissue uptake of 1.9 ± 0.5 %ID/g (healthy female BALB/c nude mice, muscle; intravenous, 7.4 MBq per mouse, 60 min).
The remaining binding of `Nc1ncc(-c2cc(-c3cnn(CC(F)(F)F)c3)ncc2F)nc1C(=O)NC1CNCC(F)C1` (stereo not drawn) is reported as 72% (SNARK; KINOMEscan competition binding; 1 µM; baseline: DMSO control).
For `CC(C(=O)O)n1nc(Cn2cc3cc(OCC[18F])c(Cl)cc3n2)c2ccccc2c1=O` (racemic), the tissue uptake was 0.01 ± 0.01 %ID/g (Sprague-Dawley rat male, fat; 120 min).
The tissue uptake of `CN(CCCO)Cc1ccc(-c2noc(-c3ccc(OCC[18F])c(C(F)(F)F)c3)n2)cc1F` is reported as 4.57 ± 0.16 %ID/g (Sprague-Dawley rats, male, liver; 5 min post-injection).
`CC(C)C[C@H](NC(=O)[C@H](Cc1ccc(O)cc1)NC(=O)[C@@H](CCCNC(=N)N)NC(=O)[C@@H](CO)NC(=O)[C@H](Cc1ccccc1)NC(=O)[C@H](CC1CCCCC1)NC(=O)[C@H](CC(=O)O)NC(=O)CN1CCN(CC(=O)O)CCN(CC(=O)O)CCN(CC(=O)O)CC1)C(=O)N[C@@H](Cc1c[nH]c2ccccc12)C(=O)N[C@@H](CO)C(=O)O` [copper-64 labelled] gave an activity concentration of 654 Bq/mL and 3650 Bq/mL and 4070 Bq/mL (human, gall bladder; concentration not given, 24 h).
For `CCOC(=O)CNC(=O)CN1CCN(CC(=O)NCC(=O)OCC)CCN(CC(=O)NCC(=O)OCC)CCN(CC(=O)NCC(=O)OCC)CC1.[177Lu+3]`, the tissue uptake was 0.014 ± 0.004 % injected dose/g (Sprague-Dawley rat, muscle; intravenous (tail vein), dose not given, 2 h).
`COc1cccc(OC)c1-c1cc(C(=O)NC2(C(=O)O)C3CC4CC(C3)CC2C4)nn1-c1ccc(C(=O)N(C)CCOCCOCCN(C)C(=O)[C@H](CCCCNC(=O)[C@H](CC(C)C)NC(=O)C2OC2C(=O)O)NC(=O)CN2CCN(CC(=O)[O-])CCN(CC(=O)[O-])CCN(CC(=O)[O-])CC2)cc1C(C)C.[177Lu+3]` (mixture of isomers) has a tissue uptake of 1.6 %ID/g (mouse, HT-29 xenograft, heart; 4 h post injection).
`CCN(CC)CC#CCNc1ccnc2cc(Cl)ccc12` — result for “revertants per well”: 3 (Salmonella typhimurium; mini-Ames test; TA1535; 1000.0 µg/well, without S9).
The tissue uptake of `CCCC[C@H](NC(=O)CCCCCCCNC(=O)CN1CCN(CC(=O)O)CCN(CC(=O)O)CC1)C(=O)N[C@H]1CC(=O)NCCCC[C@@H](C(N)=O)NC(=O)[C@H](Cc2c[nH]c3ccccc23)NC(=O)[C@H](CCCNC(=N)N)NC(=O)[C@@H](Cc2ccccc2)NC(=O)[C@H](Cc2c[nH]cn2)NC1=O` [fluorine-18 labelled] is reported as 0.42 ± 0.09 %ID/g (C57 mice, B16/F10 melanoma, muscle; intravenous, 1 h, added: NDP-MSH 10 µg).
`O=C(O)CCCOc1ccc([18F])cc1-c1cc(-c2ccccc2C(F)(F)F)n(-c2ccccc2)n1` gave a tissue uptake of 3.11 ± 0.65 %ID/g (mouse, small intestine; intravenous, dose not given, 15 min).

Some of these lines once more:
`O=C(NCC1OC2CCC=CCCC2O1)c1ccc(COCCOCCOCC[18F])cc1` (stereo not drawn) has a tissue uptake of 1.9 ± 0.5 %ID/g (healthy female BALB/c nude mice, muscle; intravenous, 7.4 MBq per mouse, 60 min).
`CC(C)C[C@H](NC(=O)[C@H](Cc1ccc(O)cc1)NC(=O)[C@@H](CCCNC(=N)N)NC(=O)[C@@H](CO)NC(=O)[C@H](Cc1ccccc1)NC(=O)[C@H](CC1CCCCC1)NC(=O)[C@H](CC(=O)O)NC(=O)CN1CCN(CC(=O)O)CCN(CC(=O)O)CCN(CC(=O)O)CC1)C(=O)N[C@@H](Cc1c[nH]c2ccccc12)C(=O)N[C@@H](CO)C(=O)O` [copper-64 labelled] gave an activity concentration of 654 Bq/mL and 3650 Bq/mL and 4070 Bq/mL (human, gall bladder; concentration not given, 24 h).
